Experimental data pooled from the literature.
Lines come from different studies, so protocols differ. Numbers after ± are the reported error.
Ephx2: Bifunctional epoxide hydrolase 2 (Ephx2, Mus musculus, UniProt P34914)
Sequence of UniProt P34914 (whole entry, looked up): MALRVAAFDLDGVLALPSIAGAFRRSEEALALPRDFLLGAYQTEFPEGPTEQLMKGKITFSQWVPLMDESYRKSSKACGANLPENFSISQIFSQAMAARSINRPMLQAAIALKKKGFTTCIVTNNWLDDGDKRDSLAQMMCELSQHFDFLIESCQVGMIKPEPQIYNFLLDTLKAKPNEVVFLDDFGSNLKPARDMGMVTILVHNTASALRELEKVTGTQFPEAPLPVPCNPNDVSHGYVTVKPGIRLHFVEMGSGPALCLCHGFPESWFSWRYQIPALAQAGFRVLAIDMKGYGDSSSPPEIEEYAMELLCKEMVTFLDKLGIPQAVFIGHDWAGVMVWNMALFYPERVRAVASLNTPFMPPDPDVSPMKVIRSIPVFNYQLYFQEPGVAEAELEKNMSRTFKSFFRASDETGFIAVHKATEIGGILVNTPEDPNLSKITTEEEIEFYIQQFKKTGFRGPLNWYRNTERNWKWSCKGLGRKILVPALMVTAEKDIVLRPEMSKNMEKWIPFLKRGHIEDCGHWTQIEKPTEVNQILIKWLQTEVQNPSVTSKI
Oprk1: Kappa-type opioid receptor (Oprk1, Mus musculus, UniProt P33534)
Sequence of UniProt P33534 (whole entry, looked up): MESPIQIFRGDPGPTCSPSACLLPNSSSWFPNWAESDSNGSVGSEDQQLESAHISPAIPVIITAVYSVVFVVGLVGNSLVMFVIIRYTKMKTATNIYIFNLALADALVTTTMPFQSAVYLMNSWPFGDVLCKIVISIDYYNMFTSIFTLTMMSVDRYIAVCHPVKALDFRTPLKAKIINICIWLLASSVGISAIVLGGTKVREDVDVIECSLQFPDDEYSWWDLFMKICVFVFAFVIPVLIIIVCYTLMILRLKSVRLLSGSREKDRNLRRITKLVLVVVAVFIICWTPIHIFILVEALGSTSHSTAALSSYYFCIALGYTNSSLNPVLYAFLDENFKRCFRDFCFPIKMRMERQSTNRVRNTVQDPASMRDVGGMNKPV
ache: Acetylcholinesterase (ache, Electrophorus electricus, UniProt O42275)
Sequence of UniProt O42275 (whole entry, looked up): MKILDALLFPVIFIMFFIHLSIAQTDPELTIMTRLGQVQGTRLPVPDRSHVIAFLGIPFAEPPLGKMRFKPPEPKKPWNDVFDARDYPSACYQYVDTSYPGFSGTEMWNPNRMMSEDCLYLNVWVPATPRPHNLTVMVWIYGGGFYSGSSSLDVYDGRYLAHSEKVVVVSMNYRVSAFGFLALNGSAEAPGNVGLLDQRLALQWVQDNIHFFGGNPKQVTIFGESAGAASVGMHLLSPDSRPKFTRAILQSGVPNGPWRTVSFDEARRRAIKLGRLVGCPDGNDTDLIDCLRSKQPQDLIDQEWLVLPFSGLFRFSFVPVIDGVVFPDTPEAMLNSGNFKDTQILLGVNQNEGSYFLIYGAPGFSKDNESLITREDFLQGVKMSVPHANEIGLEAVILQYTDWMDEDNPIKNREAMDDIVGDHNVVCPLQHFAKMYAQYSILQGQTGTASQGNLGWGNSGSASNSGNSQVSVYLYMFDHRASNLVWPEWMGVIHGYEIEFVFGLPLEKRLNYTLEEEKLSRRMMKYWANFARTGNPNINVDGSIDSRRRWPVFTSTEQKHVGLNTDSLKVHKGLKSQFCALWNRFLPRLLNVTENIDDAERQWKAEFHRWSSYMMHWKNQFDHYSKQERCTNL
Sequence of UniProt P34913 (whole entry, looked up): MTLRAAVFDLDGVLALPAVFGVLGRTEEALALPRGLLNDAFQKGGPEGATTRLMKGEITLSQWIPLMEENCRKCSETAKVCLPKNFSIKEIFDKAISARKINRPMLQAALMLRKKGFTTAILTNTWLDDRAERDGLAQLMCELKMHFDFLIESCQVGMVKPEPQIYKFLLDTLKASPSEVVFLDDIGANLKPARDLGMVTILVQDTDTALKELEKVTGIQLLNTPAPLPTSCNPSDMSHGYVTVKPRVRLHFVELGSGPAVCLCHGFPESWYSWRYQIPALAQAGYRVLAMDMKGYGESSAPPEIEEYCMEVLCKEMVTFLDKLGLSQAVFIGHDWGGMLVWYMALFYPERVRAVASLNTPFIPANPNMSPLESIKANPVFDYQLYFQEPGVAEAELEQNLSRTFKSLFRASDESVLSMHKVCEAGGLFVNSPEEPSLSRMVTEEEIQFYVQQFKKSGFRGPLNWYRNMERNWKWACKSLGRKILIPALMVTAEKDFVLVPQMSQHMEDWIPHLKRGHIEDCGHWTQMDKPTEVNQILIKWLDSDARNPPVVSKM
Sequence of UniProt P35372 (whole entry, looked up): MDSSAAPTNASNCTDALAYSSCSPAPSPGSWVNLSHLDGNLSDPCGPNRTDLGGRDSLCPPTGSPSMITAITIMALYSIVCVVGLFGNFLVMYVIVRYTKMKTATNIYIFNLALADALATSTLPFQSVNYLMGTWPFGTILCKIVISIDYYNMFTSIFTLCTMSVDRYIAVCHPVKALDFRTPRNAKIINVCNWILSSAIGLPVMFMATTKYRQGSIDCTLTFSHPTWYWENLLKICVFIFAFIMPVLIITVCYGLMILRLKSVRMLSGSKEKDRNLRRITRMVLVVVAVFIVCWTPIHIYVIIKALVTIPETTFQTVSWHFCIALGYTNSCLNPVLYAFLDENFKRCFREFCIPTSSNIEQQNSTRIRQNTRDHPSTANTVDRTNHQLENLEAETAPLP
Sequence of UniProt P32300 (whole entry, looked up): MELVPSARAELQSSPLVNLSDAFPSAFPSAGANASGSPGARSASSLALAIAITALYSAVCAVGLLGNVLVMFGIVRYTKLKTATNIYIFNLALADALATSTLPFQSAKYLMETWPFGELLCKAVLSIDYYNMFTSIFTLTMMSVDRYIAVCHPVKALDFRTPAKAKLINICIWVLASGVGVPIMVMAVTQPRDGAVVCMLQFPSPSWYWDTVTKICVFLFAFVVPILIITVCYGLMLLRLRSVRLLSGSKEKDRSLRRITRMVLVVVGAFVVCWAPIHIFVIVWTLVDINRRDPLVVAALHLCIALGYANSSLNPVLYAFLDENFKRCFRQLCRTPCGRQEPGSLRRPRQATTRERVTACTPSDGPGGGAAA

| Compound | target or system | action | host | route | dose | endpoint | value |
| --- | --- | --- | --- | --- | --- | --- | --- |
| CN1CC[C@]23c4c5ccc(O)c4O[C@H]2[C@@H](OS(=O)(=O)O)C=C[C@H]3[C@H]1C5 | Mu-type opioid receptor (OPRM1, Homo sapiens, UniProt P35372) |  |  |  |  | EC50 | 0.035 µM |
| Cc1cc(OCc2nnc(SC3CCCC3)n2-c2cccnc2)ccc1-c1ccc(S(C)(=O)=O)cc1 | SW-620 |  |  |  |  | GI50 | 1.76 µM |
| O=C(Nc1ccc(-c2cnc3ccccc3c2)cc1)C1CCN(Cc2cccc([N+](=O)[O-])c2)CC1 | Bifunctional epoxide hydrolase 2 (EPHX2, Homo sapiens, UniProt P34913) |  |  |  |  | IC50 | 0.0316 µM |
| Cc1ccccc1S(=O)(=O)Nc1c(N2CCC(NC(=O)Nc3cc(F)cc(F)c3)CC2)c(=O)c1=O | Ephx2 |  |  |  |  | IC50 | 2.63 ± 0.312 µM |
| C(#Cc1c[nH]c2nccc(-c3ccncc3)c12)c1cccnc1 |  |  | mouse C57BL/6, male | intravenous | 2 mg/kg | AUC(0-inf) | 660 ± 206 ng·h/mL |
| O=C(N[C@@H]1CC[C@@]2(O)[C@H]3Cc4ccc(O)c5c4[C@@]2(CCN3CC2CC2)[C@H]1O5)c1ccc(Br)cc1 | Oprk1 | agonist |  |  |  | EC50 | > 10 µM |
| O=C(Nc1ccc(-c2cnc3ccccc3c2)cc1)C1CCN(Cc2ccc([N+](=O)[O-])cc2)CC1 | ache |  |  |  |  | IC50 | 2.17 µM |
| O=C(N[C@@H]1CC[C@@]2(O)[C@H]3Cc4ccc(O)c5c4[C@@]2(CCN3CC2CC2)[C@H]1O5)c1ccc(C(F)(F)F)cc1 | Delta-type opioid receptor (Oprd1, Mus musculus, UniProt P32300) | agonist |  |  |  | EC50 | > 10 µM |
| Cc1ccc(S(=O)(=O)Nc2c(N3CCC(NC(=O)Nc4ccc(Cl)c(C(F)(F)F)c4)CC3)c(=O)c2=O)cc1 | Ephx2 |  |  |  |  | IC50 | 0.0037 ± 0.0003 µM |
| CC(C)[C@H](NC(=O)[C@H](CC(N)=O)NC(=O)[C@H](Cc1ccc(O)cc1)NC(=O)[C@H](C)NC(=O)[C@H](CCCCN)NC(=O)[C@@H](NC(=O)[C@H](C)NC(=O)[C@@H](NC(=O)[C@H](CCCNC(=N)N)NC(=O)[C@@H](N)CCCCN)[C@@H](C)O)[C@@H](C)O)C(=O)N[C@H](C(=O)N[C@@H](CCC(N)=O)C(=O)N[C@@H](C)C(=O)N[C@@H](Cc1ccccc1)C(=O)NCC(=O)O)[C@@H](C)O | HLA-DRA/HLA-DRB3, 76 (Homo sapiens, UniProt P01903+P79483) |  |  |  |  | IC50 | 11.7 µM |
| O=C(Nc1ccc(Cl)c(F)c1)NC1CCN(c2c(NS(=O)(=O)Cc3ccccc3)c(=O)c2=O)CC1 | Ephx2 |  |  |  |  | IC50 | 1.04 ± 0.0942 µM |
| O=C(N[C@@H]1CC[C@@]2(O)[C@H]3Cc4ccc(O)c5c4[C@@]2(CCN3CC2CC2)[C@H]1O5)c1ccc(I)cc1 | Oprk1 | agonist |  |  |  | EC50 | > 10 µM |
| O=C(Nc1ccc(-c2ccc3ccccc3n2)cc1)C1CCN(Cc2ccc(F)cc2F)CC1 | ache |  |  |  |  | IC50 | 2.15 µM |

A few entries again:
| Compound | target or system | action | host | route | dose | endpoint | value |
| --- | --- | --- | --- | --- | --- | --- | --- |
| O=C(Nc1ccc(-c2ccc3ccccc3n2)cc1)C1CCN(Cc2ccc(F)cc2F)CC1 | ache |  |  |  |  | IC50 | 2.15 µM |
